Published values of several laboratories.
Each numbered part is a random draw from the data of one study; scales do not carry over between parts. Substitutions count along the parent as printed.

Block 1 — technique: protein-binding microarray; molecule type: double-stranded DNA, one strand shown; matrix: in vitro; concentration: 250 nM; setting: 60-bp whole probe; together with: salmon DNA 0.4 mg/ml; relative to: random background probes; reading: higher = stronger binding; shared flanks, not repeated: GCCTAGCAC … GTCTTGATTCGCTTGACGCTGCTG
Target: Interferon regulatory factor 7, full length, phosphomimetic (IRF7, Homo sapiens, UniProt Q92985, residues 1-503, S101K/S471D/S472D/S475D/S476D/S477D/S483D/S484D/S487D)
UniProt Q92985, sequence (whole entry, unmodified, looked up): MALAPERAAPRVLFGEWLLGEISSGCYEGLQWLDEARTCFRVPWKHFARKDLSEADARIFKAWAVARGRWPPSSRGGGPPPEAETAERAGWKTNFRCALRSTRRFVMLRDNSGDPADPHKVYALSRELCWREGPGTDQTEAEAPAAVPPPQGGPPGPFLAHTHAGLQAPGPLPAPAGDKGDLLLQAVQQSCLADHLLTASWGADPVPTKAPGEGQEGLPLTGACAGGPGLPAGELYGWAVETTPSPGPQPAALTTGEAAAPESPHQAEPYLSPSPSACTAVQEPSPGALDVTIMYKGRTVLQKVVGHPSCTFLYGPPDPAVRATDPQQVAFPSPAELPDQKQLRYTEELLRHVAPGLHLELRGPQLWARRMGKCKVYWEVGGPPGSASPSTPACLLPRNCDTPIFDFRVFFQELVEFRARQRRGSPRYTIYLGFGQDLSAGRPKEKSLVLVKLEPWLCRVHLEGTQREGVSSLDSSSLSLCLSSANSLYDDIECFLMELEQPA
Oligonucleotide	log fluorescence
TTTTTGGATGCTGGAAAAATGTGCTAG	0.642 z-score
GACAACTGATATCAAAGGGAGTGCTAG	-0.1 z-score
TTAGAACTGTGTATCGATTAGTGCTAG	0.102 z-score
TTAGGTATCGGACTGGGTTCGTGCTAG	0.244 z-score
TGAGTTTTCCTTCATGTGCCGTGCTAG	1.31 z-score
TTGATTGTGGCTTTTTAATGGTGCTAG	-0.462 z-score
AACGGTTTCCTTCTCCTGACGTGCTAG	2.76 z-score
GGATGTCTGTAGCTCATTCTGTGCTAG	-0.456 z-score
TTTGATATCAGTATCGATTAGTGCTAG	0.649 z-score
TCATCTTTGCTCATTTTTACTGTGCTA	0.688 z-score
GGCGGTCTCGGTATCGGGACGTGCTAG	1.72 z-score
TTAGTTATCGACTATCGGTTAGTGCTA	0.189 z-score
TTAGATCTCGGTATCGGTTAGTGCTAG	1.59 z-score
TTAGATCTCCGTCTCGATTAGTGCTAG	0.358 z-score
TCACATTTTGGTTTTCAACTGTGCTAG	0.979 z-score
AACGATATCAGTTTCGAGACGTGCTAG	4.18 z-score
TTAGGTATCGTTTTCCTTTAGTGCTAG	6.34 z-score
GACGGACTGCTTTTCGTGACGTGCTAG	0.0382 z-score
TCAACTCTCTAATTTTGAGAGTGCTAG	0.0675 z-score

Block 2 — technique: protein binding microarray; molecule type: double-stranded DNA, one strand shown; matrix: in vitro; concentration: not given; relative to: not given; reading: higher = stronger binding
Target: Histone acetyltransferase KAT6A, both winged helices, GST fusion (KAT6A, Homo sapiens, UniProt Q92794, residues 1-181)
Setting: 8-mer, flanks averaged, mean of 2 arrays, mostly near background
Target sequence (chain): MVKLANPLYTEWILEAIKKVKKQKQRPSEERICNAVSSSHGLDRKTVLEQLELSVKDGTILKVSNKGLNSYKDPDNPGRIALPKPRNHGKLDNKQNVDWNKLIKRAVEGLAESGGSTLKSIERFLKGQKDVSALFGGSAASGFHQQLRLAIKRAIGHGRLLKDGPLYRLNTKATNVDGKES
Oligonucleotide	E-score
ACGCGTCA	0.302
ATAGCGAA	-0.0631
CACTGGAA	-0.14
CATTGAAA	0.0481
AGATGATA	-0.0397
AAATCCAC	-0.217
ACGCTGGA	0.00277
AGTCACTG	-0.0269
CCTGTGCA	-0.0131
TTCCACAA	-0.19
AAGTTCAA	-0.11
AGCGCACT	0.106
AACGAACT	-0.0922
ATGAGTTC	-0.0738
ACGTATCC	-0.0583
ACCTCTTC	-0.0809
GATCGAGC	0.0673
TAGCTGGA	-0.201
CCGGTGGA	0.0798
AGAAAGAC	-0.105
AAACATGT	0.0801
AGTTAGCC	-0.0521
CGGCCGCA	0.364
AACAAAGA	-0.159
AATGCCTA	-0.168

Block 3 — target: CCND1, cyclin fold, Cln2 fusion (human); technique: yeast growth competition, sequencing; matrix: yeast; setting: strong parent motif; relative to: not given; reading: higher = stronger binding
Starting sequence: SCAPER docking peptide (human); SNARRSLNFGGST; partner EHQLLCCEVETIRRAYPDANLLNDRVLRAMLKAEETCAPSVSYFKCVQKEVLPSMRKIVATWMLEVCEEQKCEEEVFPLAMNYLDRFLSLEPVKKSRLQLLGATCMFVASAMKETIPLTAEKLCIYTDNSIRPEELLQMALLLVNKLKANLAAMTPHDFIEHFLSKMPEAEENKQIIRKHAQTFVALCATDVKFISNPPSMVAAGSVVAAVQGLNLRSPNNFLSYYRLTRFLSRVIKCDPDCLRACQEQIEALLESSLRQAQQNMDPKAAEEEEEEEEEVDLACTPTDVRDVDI
Change	normalised enrichment score
R4Y	-0.108
N2G	1.51
S12R	-0.242
N2R	0.541
L7V	0.311
L7D	0.559
R4C	2.4
R4L	-0.382
F9M	0.356
A3P	0.375
A3M	0.871
R5L	0.639
S6N	0.852
N2W	1.12
R5M	0.927
F9L	0.142
T13Q	1
S1Y	0.964
F9E	0.0483
N2A	1.04
S12D	1.89
L7G	-0.149
R4M	0.747
N8Y	0.208
T13P	1.69

Block 4 — technique: RNA Bind-n-Seq; molecule type: RNA; matrix: in vitro; concentration: 365 nM; relative to: no-protein control; reading: higher = stronger binding
Target: RNA binding protein fox-1 homolog 2, RRM domain, GST-SBP tag (RBFOX2, Homo sapiens, UniProt O43251-10, residues 100-194)
Setting: natural RNA segment, single round, ends assumed
Shared flanks, not repeated: GGGAGUUCUACAGUCCGACGAUC … UGGAAUUCUCGGGUGCCAA
Target sequence (chain): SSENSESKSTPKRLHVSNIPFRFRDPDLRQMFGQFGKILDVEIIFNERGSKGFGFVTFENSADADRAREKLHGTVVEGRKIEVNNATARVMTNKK
Oligonucleotide	RBNS enrichment (R)
UGUGGCACUGAGGAGCUGACUUUGGUCAAAGGCCAGGCUCUGCCCAGCAGGGGACUUGACUGCCCUGGGCGCCCUGCCCCUCCCGCUGCGUGUCCAGGUCCAAAGUGGAG	0.522
UAUCAUGGUGAACCAUUUAUUUAACUGUUGAUCUAGUCACCAAUACCUAGAAGACACCAUAAUCAGUUUAUUUACAACAACCACAUCAUCAGUUGCUUUUGUCGAACAUC	0.276
CUCCACCGAAGUGCUGGGGAGUUGCAGGACUUCAUUCAAAUAGGAAUAUCAGUCCAAGCAAGCUGAUACGUGAGUGGCAGUGGAUAGGAUUUGCUUAAUGGCUGAUGUAA	0.446
CCAACAUGGAGAAACCCCGCCUCUACUAAAAAUACAAAAAAUUAGCCAGGCAUGGAGGCACAUGCCUAUAAUCCCAGCUACUCGGGAGGCUGAGGUAGGAGAAUCGCUUG	0.922
UUAAUAAGUGAGUGCCAUAAGAAAGUCAAUAUAUAUUGUUUAAAAGAUAUUUCAGUCUAGGAAAGAUUUUCCUUCUCUUGGAAUGUGAAGAUCUGUCGAUUCAUCUCCAA	0.527
GGUUUUACUAUUAUGGUUUGAAGUGGAGUCUCAUGACCUCUCAGAAUAAGGUGUCACCUCCCUGAAAUUGCAUAUAUGUAUAUAGACAUGCACACGUGUGCAUUUGUUUG	0.437
CCGUGAUGCCAUUUGGAGGGGAGAGGUCUGCUUCCCACUGUGACCAGGCUAUGGGAUCCUUGGCCACCUUGCUUCAUGAUUUGAUACAUUUGUUGUAUUCAAAAACUUGA	0.528
UCUCAGGCCUCGGAAGGAAGAUCGGUGGCUGCGAGCUGAACUAAGGAGUAGGGCCUGUGGCUCAGCGCUAGGCCACGCACGCAGCAUCCCAGGCAUGUGGUGAGAAACUG	1.28

Repeated from above (block 1):
Oligonucleotide	log fluorescence
TCACATTTTGGTTTTCAACTGTGCTAG	0.979 z-score
GACAACTGATATCAAAGGGAGTGCTAG	-0.1 z-score
GGATGTCTGTAGCTCATTCTGTGCTAG	-0.456 z-score
TTTGATATCAGTATCGATTAGTGCTAG	0.649 z-score
TGAGTTTTCCTTCATGTGCCGTGCTAG	1.31 z-score
TTAGATCTCCGTCTCGATTAGTGCTAG	0.358 z-score
TTAGTTATCGACTATCGGTTAGTGCTA	0.189 z-score
